Measurements from different studies.
Parts stem from different laboratories: compare values within a part only.
UniProt Q9H2X6, sequence (whole entry, looked up): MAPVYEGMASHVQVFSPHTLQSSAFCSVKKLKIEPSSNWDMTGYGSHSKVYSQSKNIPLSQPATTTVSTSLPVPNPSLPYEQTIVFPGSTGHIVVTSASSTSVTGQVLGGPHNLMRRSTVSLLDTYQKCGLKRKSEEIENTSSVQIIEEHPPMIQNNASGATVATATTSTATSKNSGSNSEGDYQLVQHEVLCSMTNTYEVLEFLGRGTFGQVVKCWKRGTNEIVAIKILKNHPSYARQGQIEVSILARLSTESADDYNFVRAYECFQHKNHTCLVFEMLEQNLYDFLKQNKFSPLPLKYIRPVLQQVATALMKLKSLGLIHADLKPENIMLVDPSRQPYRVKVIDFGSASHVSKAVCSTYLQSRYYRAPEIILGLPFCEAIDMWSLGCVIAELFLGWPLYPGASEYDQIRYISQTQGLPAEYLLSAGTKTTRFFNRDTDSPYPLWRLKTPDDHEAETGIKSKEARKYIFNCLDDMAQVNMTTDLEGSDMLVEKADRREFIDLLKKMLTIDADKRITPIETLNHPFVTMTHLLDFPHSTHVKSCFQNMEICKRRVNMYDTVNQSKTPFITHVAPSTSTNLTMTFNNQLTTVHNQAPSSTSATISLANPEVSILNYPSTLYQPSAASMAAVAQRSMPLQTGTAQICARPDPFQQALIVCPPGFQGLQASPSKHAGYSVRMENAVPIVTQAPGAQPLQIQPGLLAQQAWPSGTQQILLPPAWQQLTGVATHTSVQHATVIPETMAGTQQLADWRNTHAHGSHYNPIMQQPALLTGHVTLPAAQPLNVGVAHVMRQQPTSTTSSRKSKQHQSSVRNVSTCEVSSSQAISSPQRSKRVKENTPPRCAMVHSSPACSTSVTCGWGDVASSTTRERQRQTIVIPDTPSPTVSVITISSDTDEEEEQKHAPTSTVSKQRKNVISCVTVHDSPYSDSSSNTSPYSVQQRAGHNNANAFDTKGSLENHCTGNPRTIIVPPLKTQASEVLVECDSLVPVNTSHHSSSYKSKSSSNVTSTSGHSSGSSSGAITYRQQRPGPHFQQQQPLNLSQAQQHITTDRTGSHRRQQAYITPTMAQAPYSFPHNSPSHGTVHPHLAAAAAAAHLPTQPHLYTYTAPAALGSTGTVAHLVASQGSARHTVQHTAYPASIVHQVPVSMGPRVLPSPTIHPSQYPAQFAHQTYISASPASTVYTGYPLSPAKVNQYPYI
UniProt Q8NE63, sequence (whole entry, looked up): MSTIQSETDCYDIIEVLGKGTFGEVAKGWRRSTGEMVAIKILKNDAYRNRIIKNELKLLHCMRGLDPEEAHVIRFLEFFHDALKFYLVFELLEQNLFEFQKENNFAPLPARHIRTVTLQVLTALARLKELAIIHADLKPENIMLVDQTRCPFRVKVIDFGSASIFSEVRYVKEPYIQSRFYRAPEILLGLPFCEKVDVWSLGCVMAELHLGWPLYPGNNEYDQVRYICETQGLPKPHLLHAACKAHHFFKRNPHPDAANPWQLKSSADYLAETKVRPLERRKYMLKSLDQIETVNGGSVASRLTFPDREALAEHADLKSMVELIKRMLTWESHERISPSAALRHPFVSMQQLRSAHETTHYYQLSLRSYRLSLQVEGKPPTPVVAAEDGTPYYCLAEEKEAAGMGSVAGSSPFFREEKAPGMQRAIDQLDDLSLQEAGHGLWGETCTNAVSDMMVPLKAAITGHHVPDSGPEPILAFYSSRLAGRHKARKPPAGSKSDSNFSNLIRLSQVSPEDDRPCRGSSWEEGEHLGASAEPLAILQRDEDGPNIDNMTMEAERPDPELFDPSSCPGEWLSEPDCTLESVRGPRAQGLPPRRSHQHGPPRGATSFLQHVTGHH
UniProt Q9UF33, sequence (whole entry, looked up): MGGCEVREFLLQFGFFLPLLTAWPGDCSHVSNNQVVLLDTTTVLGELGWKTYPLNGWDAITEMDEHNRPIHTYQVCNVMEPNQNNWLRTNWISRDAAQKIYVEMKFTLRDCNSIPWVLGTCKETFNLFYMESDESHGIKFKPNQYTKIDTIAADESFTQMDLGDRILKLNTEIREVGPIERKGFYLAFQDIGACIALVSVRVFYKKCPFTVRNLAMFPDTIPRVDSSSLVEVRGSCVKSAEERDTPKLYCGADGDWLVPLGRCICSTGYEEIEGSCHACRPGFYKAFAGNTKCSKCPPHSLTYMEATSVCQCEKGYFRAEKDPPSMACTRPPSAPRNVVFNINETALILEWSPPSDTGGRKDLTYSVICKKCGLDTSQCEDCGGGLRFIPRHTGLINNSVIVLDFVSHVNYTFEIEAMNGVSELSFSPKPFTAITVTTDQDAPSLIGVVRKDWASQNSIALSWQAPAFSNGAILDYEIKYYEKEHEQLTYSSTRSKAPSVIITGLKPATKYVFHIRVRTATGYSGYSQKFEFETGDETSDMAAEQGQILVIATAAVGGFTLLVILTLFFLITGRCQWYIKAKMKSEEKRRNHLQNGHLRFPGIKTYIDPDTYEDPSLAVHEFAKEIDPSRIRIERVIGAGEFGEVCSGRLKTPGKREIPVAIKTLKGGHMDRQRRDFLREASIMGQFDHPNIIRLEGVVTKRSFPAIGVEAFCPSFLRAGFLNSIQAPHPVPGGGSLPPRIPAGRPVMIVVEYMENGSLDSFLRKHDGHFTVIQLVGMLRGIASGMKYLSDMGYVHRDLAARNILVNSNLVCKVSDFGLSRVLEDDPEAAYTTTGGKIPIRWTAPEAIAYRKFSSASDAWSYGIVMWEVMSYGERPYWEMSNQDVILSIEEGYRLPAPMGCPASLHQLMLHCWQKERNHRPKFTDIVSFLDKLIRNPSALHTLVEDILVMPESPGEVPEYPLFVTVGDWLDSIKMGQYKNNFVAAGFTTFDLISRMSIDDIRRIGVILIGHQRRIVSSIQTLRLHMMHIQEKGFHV
UniProt P25021, sequence (whole entry, looked up): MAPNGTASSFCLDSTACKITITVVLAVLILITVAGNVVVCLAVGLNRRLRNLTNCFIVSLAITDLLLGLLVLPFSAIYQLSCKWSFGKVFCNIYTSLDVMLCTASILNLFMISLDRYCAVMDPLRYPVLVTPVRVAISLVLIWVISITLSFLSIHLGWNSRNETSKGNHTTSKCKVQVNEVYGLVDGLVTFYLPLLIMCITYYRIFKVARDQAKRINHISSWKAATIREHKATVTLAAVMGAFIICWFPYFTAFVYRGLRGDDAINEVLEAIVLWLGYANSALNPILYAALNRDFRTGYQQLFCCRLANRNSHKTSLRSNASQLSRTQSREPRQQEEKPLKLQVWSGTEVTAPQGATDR
UniProt P41597, sequence (whole entry, looked up): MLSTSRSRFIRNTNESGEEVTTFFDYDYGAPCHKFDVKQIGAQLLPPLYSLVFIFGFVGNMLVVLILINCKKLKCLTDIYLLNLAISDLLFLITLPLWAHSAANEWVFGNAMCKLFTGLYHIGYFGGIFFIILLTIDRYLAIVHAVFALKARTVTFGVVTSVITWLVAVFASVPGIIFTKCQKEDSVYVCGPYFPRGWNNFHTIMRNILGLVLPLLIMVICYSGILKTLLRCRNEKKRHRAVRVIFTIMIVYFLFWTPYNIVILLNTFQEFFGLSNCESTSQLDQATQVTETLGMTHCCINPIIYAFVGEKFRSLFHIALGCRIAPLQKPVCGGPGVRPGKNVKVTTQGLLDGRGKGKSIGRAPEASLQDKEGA
UniProt Q9UEE5, sequence (whole entry, looked up): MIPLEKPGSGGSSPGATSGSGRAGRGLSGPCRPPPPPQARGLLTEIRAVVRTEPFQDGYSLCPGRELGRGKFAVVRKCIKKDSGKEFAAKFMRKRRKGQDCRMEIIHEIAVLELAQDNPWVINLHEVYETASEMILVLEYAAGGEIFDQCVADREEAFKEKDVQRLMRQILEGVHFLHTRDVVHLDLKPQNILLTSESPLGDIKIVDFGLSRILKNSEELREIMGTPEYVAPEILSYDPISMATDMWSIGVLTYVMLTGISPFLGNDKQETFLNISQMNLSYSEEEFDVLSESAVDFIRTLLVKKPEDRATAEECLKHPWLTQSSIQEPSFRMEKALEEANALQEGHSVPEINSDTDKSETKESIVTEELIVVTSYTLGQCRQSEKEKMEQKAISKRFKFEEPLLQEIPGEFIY
UniProt Q00534, sequence (whole entry, looked up): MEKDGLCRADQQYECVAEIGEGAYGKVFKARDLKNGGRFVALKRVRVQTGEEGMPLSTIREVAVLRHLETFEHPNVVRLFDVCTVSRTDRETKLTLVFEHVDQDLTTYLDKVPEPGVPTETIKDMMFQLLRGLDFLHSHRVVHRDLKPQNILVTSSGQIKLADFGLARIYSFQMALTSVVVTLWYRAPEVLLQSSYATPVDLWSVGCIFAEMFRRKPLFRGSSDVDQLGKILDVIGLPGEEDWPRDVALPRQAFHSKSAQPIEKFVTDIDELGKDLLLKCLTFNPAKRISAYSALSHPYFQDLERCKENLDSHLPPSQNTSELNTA
UniProt Q16816, sequence (whole entry, looked up): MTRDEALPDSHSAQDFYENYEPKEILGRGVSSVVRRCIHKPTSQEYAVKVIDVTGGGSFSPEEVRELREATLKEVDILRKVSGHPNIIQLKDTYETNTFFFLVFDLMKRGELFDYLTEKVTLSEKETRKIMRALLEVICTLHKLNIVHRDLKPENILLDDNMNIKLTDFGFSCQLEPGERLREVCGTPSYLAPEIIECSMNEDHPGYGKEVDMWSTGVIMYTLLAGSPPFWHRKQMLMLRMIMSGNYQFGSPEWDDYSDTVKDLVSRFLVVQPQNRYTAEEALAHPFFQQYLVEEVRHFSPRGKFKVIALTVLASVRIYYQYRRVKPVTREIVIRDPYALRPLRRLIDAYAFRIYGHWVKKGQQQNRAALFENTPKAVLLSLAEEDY
UniProt O75716, sequence (whole entry, looked up): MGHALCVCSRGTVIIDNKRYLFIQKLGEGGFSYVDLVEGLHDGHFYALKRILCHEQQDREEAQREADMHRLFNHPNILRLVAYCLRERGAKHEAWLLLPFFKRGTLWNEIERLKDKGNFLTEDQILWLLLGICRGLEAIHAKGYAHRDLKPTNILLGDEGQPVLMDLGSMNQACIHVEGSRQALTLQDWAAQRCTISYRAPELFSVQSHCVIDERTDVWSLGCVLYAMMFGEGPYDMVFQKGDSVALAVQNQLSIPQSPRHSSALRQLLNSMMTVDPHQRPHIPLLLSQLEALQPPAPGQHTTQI

Series 1 — dose: dose not given; endpoint: fold change
Compound: CC(=O)N[C@@H](Cc1c[nH]c2ccccc12)C(=O)N[C@@H](CCC(=O)C=[N+]=[N-])C(=O)OC(C)C
assay = metabolomics, refers to: ribulose/xylulose 5-phosphate; test system = mouse, EL4 tumour; how to read = baseline: vehicle; result = 2.99
assay = refers to: reduced glutathione; test system = mouse, EL4 tumour, tumour; how to read = baseline: vehicle; result = 0.449
assay = refers to: 2'-deoxyguanosine 3'-monophosphate; test system = mouse, EL4 tumour, tumour; how to read = baseline: vehicle; result = 3.77
assay = refers to: methylsuccinate; test system = mouse, EL4 tumour-bearing, EL4 tumour; how to read = baseline: vehicle; result = 5.99
assay = refers to: betaine aldehyde; test system = Mus musculus, EL4 tumour; how to read = baseline: over vehicle; result = 0.372
assay = refers to: adenine; test system = mouse, EL4 tumour-bearing, EL4 tumour; how to read = baseline: vehicle; result = 0.174
assay = refers to: FGAR; test system = mouse, EL4 tumour-bearing, EL4 tumour; how to read = baseline: vehicle; result = 17.3
assay = refers to: guanine; test system = mouse, EL4 tumour-bearing, EL4 tumour; how to read = baseline: vehicle; result = 0.434
assay = refers to: 1-methylhistamine; test system = mouse, EL4 tumour-bearing, EL4 tumour; how to read = baseline: vehicle; result = 2.57
assay = refers to: ribose; test system = mouse, EL4 tumour-bearing, EL4 tumour; how to read = baseline: vehicle; result = 3.23
assay = refers to: 4-hydroxyphenylpyruvate; test system = mouse, EL4 tumour-bearing, EL4 tumour; how to read = baseline: vehicle; result = 2.59

Series 2 — observed: enzyme activity; action: inhibitor; concentration: 0.5 µM; baseline: control; endpoint: remaining activity
SMILES: C[S+]([O-])c1ccc(-c2nc(-c3ccncc3)c(-c3ccc(F)cc3)[nH]2)cc1 (stereo not drawn)
target = HIPK2 (Homo sapiens, UniProt Q9H2X6); result = 102%
target = HIPK4 (Homo sapiens, UniProt Q8NE63); result = 93.5%
target = TSSK2 (Homo sapiens, UniProt Q96PF2); result = 95.7%
target = BLK (Homo sapiens, UniProt P51451); result = 102%
target = STK16 (Homo sapiens, UniProt O75716); result = 111%
target = EPHB1 (Homo sapiens, UniProt P54762); result = 93%
target = STK17A (Homo sapiens, UniProt Q9UEE5); result = 98.9%
target = RPS6KA5 (Homo sapiens, UniProt O75582); result = 104%
target = Cyclin-dependent kinase 1, with cyclin B (CDK1, Homo sapiens, UniProt P06493); result = 99.1%
target = Cyclin-dependent kinase 6, with cyclin D3 (CDK6, Homo sapiens, UniProt Q00534); result = 94.6%
target = MAPKAPK3 (Homo sapiens, UniProt Q16644); result = 101%
target = PHKG1 (Homo sapiens, UniProt Q16816); result = 94.1%
target = PRKACG (Homo sapiens, UniProt P22612); result = 107%
target = EPHA4 (Homo sapiens, UniProt P54764); result = 95.6%
target = WNK3 (Homo sapiens, UniProt Q9BYP7); result = 99%
target = AXL (Homo sapiens, UniProt P30530); result = 100%

Series 3 — concentration: 1 µM; endpoint: remaining binding
Structure (SMILES): CCCCN(CCCC)C(=O)CN1C[C@@H](c2cc(OC)c3c(c2)OCO3)[C@H](C(=O)O)[C@H]1CC(C)(C)CCC
target = WNK2 (Homo sapiens, UniProt Q9Y3S1); assay = cell-free assay, competition with immobilised ligand; result = 99.3%
target = DMPK (Homo sapiens, UniProt Q09013); assay = cell-free assay, competition with immobilised ligand; result = 100%
target = FRK (Homo sapiens, UniProt P42685); assay = cell-free assay, competition with immobilised ligand; result = 100%
target = SIK1 (Homo sapiens, UniProt P57059); assay = competition binding; result = 100%
target = Aurora kinase A (AURKA, Homo sapiens, UniProt O14965); assay = cell-free assay, competition with immobilised ligand; result = 90.2%
target = MAPK8 (Homo sapiens, UniProt P45983); assay = cell-free assay, competition with immobilised ligand; result = 92.1%
target = CDK2 (Homo sapiens, UniProt P24941); assay = cell-free assay, competition with immobilised ligand; result = 100%
target = PDGFRB (Homo sapiens, UniProt P09619); assay = cell-free assay, competition with immobilised ligand; result = 99%
target = COQ8A (Homo sapiens, UniProt Q8NI60); assay = cell-free assay, competition with immobilised ligand; result = 99.4%
target = STK35 (Homo sapiens, UniProt Q8TDR2); assay = cell-free assay, competition with immobilised ligand; result = 100%
target = CDKL3 (Homo sapiens, UniProt Q8IVW4); assay = cell-free assay, competition with immobilised ligand; result = 83.6%
target = EPHA6 (Homo sapiens, UniProt Q9UF33); assay = cell-free assay, competition with immobilised ligand; result = 100%
target = EIF2AK2 (Homo sapiens, UniProt P19525); assay = cell-free assay, competition with immobilised ligand; result = 100%
target = MAPKAPK5 (Homo sapiens, UniProt Q8IW41); assay = cell-free assay, competition with immobilised ligand; result = 100%
target = KIT (Homo sapiens, UniProt P10721, A829P); assay = cell-free assay, competition with immobilised ligand; result = 76.5%
target = SYK (Homo sapiens, UniProt P43405); assay = cell-free assay, competition with immobilised ligand; result = 100%
target = SBK1 (Homo sapiens, UniProt Q52WX2); assay = cell-free assay, competition with immobilised ligand; result = 90.6%
target = MAP3K13 (Homo sapiens, UniProt O43283); assay = cell-free assay, competition with immobilised ligand; result = 100%
target = LCK (Homo sapiens, UniProt P06239); assay = cell-free assay, competition with immobilised ligand; result = 99.1%
target = MAP2K7 (Homo sapiens, UniProt O14733); assay = cell-free assay, competition with immobilised ligand; result = 88.6%

Series 4 — SMILES: CC(C)CN(C)c1nc(N)c(C(=O)N=C(N)N)nc1Cl; observed: β-arrestin recruitment; action: agonist; method: PRESTO-Tango; concentration: 10 µM; baseline: untreated; endpoint: fold over basal
target = ADRA2B (Homo sapiens, UniProt P18089); result = 1.04
target = ADRA2A (Homo sapiens, UniProt P08913); result = 0.31
target = OPRK1 (Homo sapiens, UniProt P41145); result = 1.48 fold
target = HRH2 (Homo sapiens, UniProt P25021); result = 1.59 fold
target = CXCR5 (Homo sapiens, UniProt P32302); result = 0.84
target = CHRM5 (Homo sapiens, UniProt P08912); result = 0.97
target = C-C chemokine receptor type 2, isoform B (CCR2, Homo sapiens, UniProt P41597); result = 0.79
target = S1PR4 (Homo sapiens, UniProt O95977); result = 1.06
target = DRD3 (Homo sapiens, UniProt P35462); result = 1.2
target = HTR1D (Homo sapiens, UniProt P28221); result = 0.96

Some of these lines once more (series 1):
assay = refers to: FGAR; test system = mouse, EL4 tumour-bearing, EL4 tumour; how to read = baseline: vehicle; result = 17.3
assay = refers to: ribose; test system = mouse, EL4 tumour-bearing, EL4 tumour; how to read = baseline: vehicle; result = 3.23
assay = refers to: methylsuccinate; test system = mouse, EL4 tumour-bearing, EL4 tumour; how to read = baseline: vehicle; result = 5.99
assay = refers to: 4-hydroxyphenylpyruvate; test system = mouse, EL4 tumour-bearing, EL4 tumour; how to read = baseline: vehicle; result = 2.59
assay = refers to: guanine; test system = mouse, EL4 tumour-bearing, EL4 tumour; how to read = baseline: vehicle; result = 0.434
